Published values pooled from the literature.
Lines come from different studies, so protocols differ. Numbers after ± are the reported error.
Organism: Escherichia coli

For `CC[C@H](C)[C@H](NC(=O)[C@H](CCCNC(=N)N)NC(=O)[C@H](CCCNC(=N)N)NC(=O)[C@@H]1CCCN1C(=O)[C@@H]1CCCN1C(=O)[C@H](CCCNC(=N)N)NC(=O)[C@@H]1CCCN1C(=O)[C@H](CCCNC(=N)N)NC(=O)[C@@H]1CCCN1C(=O)[C@H](CC(C)C)NC(=O)[C@H](Cc1ccc(O)cc1)NC(=O)[C@@H]1CCCN1C(=O)[C@@H]1CCCN1C(=O)[C@H](CCCCN)NC(=O)[C@H](CC(=O)O)NC(=O)[C@@H](N)C(C)C)C(=O)N[C@@H](Cc1ccc(O)cc1)C(=O)N[C@@H](CC(N)=O)C(=O)N[C@@H](CCCNC(=N)N)C(N)=O`, the MIC was 1 µM (alamarBlue; SQ110 LptD defective; overnight, 37 °C).
For `CCN(CC)c1ccc(C=NNC(=O)c2ccccn2)c(O)c1`, the MIC was over 256 µg/mL (microbial growth, broth dilution; ATCC25922).
`CCc1cc(=O)c2c(OCC3CO3)c3ccoc3c(OC)c2o1` (stereo not drawn) gave an MIC of over 256 µg/mL (microbial growth, broth dilution; ATCC25; 19 h).
For `Cc1ccc(C=Nc2nc[nH]n2)c(O)c1`, the MIC was 64 µg/mL (microbial growth, broth dilution; ATCC25922).
For `CC1(C)SC2C(NC(=O)C(NC(=O)C3=C(O)C(Cc4ccc(O)cc4)NC3=O)c3ccccc3)C(=O)N2C1C(=O)O` (stereo not drawn), the MIC was 6.25 µg/mL (broth microdilution; BW25113, Mueller-Hinton broth; 18 h, without clavulanic acid).
`CC[C@H](C)[C@H](NC(=O)[C@H](CCCNC(=N)N)NC(=O)CNC(=O)[C@H](CC(C)C)NC(=O)[C@H](Cc1ccccc1)NC(=O)[C@H](CCCCN)NC(=O)[C@H](CO)NC(=O)[C@H](Cc1ccccc1)NC(=O)[C@H](Cc1c[nH]c2ccccc12)NC(=O)[C@H](CCC(N)=O)NC(=O)[C@@H](NC(=O)[C@@H](N)Cc1ccccc1)C(C)C)C(=O)N[C@@H](CC(C)C)C(N)=O` gave an MIC of over 100 µg/mL (broth microdilution; ATCC 25922, LB medium; 16 to 20 h, 37 °C).
The MIC of `ent-Arg10-teixobactin` is reported as over 32 µg/mL (ATCC 10798).
For `CC[C@@H](C)[C@@H](NC(=O)[C@@H](Cc1c[nH]c2ccccc12)NC(=O)[C@H](N)CCCNC(=N)N)C(=O)N[C@H](CCCNC(=N)N)C(=O)N[C@H](Cc1c[nH]c2ccccc12)C(=O)N[C@@H](C(=O)N[C@H](Cc1c[nH]c2ccccc12)C(=O)N[C@H](CCCNC(=N)N)C(=O)N[C@H](CCCCN)C(=O)N[C@H](CCCCN)C(=O)N[C@H](CC(C)C)C(=O)N[C@H](CCCNC(=N)N)C(N)=O)C(C)C`, the MIC was 25 to 50 µg/mL (ATCC 25922; 1 h, 37 °C, non-dividing cells in PBS).
For `CCc1cc(=O)c2c(OCC(O)CN3CCCCC3)c3ccoc3c(OC)c2o1` (stereo not drawn), the MIC was over 256 µg/mL (microbial growth, broth dilution; ATCC25; 19 h).
`CC[C@H](C)[C@H](NC(=O)[C@H](CCCCN)NC(=O)[C@H](CCC(=O)O)NC(=O)[C@H](CCCCN)NC(=O)[C@H](CO)NC(=O)[C@H](CCCCN)NC(=O)[C@H](CCCNC(=N)N)NC(=O)[C@H](Cc1ccccc1)NC(=O)[C@H](Cc1ccccc1)NC(=O)[C@H](CC(=O)O)NC(=O)CNC(=O)[C@H](CC(C)C)NC(=O)[C@@H](N)CC(C)C)C(=O)NCC(=O)N[C@@H](CCCCN)C(=O)N[C@@H](CCC(=O)O)C(=O)N[C@@H](Cc1ccccc1)C(=O)N[C@@H](CCCCN)C(=O)N[C@@H](CCCNC(=N)N)C(=O)N[C@H](C(=O)N[C@H](C(=O)N[C@@H](CCC(N)=O)C(=O)N[C@@H](CCCNC(=N)N)C(=O)N[C@H](C(=O)N[C@@H](CCCCN)C(=O)N[C@@H](CC(=O)O)C(=O)N[C@@H](Cc1ccccc1)C(=O)N[C@@H](CC(C)C)C(=O)N[C@@H](CCCNC(=N)N)C(=O)N[C@@H](CC(N)=O)C(=O)N[C@@H](CC(C)C)C(=O)N[C@H](C(=O)N1CCC[C@H]1C(=O)N[C@@H](CCCNC(=N)N)C(=O)N[C@H](C(=O)N[C@@H](CCC(=O)O)C(=O)N[C@@H](CO)C(=O)O)[C@@H](C)O)C(C)C)[C@@H](C)CC)C(C)C)[C@@H](C)CC` gave an MIC of 3 µg/mL (broth dilution; DH5α).
With `CC1(C)S[C@@H]2[C@H](NC(=O)Cc3ccccc3)C(=O)N2[C@H]1C(=O)O` the MIC was 50 µg/mL (broth microdilution; ATCC 25922; 16 to 20 h, 37 °C).
For `RWQWRWQWR`, the MIC was 17 µM (broth microdilution; peptide, ATCC 25922; 24 h, 37 °C).
The MIC of `CC(C)CC1NC(=O)C(C(=O)NC(C(=O)NC2C(=O)N3C2SC(C)(C)C3C(=O)O)c2ccccc2)=C1O` (stereo not drawn) is reported as 50 µg/mL (broth microdilution; BW25113, Mueller-Hinton broth; 18 h, without clavulanic acid).
`O=[N+]([O-])c1ccc(C=Nc2nc[nH]n2)c(O)c1` has an MIC of over 256 µg/mL (microbial growth, broth dilution; ATCC25922).
`CCOC(=O)c1c(N)csc1-c1cn(-c2ccccc2)nc1-c1ccc(C)cc1` gave an MIC of 0.122 ± 0.5 µg/mL (broth microdilution; clinical urinary isolate; compound gamma-irradiated 15 kGy).

Excerpt of the above:
For `CC[C@H](C)[C@H](NC(=O)[C@H](CCCNC(=N)N)NC(=O)[C@H](CCCNC(=N)N)NC(=O)[C@@H]1CCCN1C(=O)[C@@H]1CCCN1C(=O)[C@H](CCCNC(=N)N)NC(=O)[C@@H]1CCCN1C(=O)[C@H](CCCNC(=N)N)NC(=O)[C@@H]1CCCN1C(=O)[C@H](CC(C)C)NC(=O)[C@H](Cc1ccc(O)cc1)NC(=O)[C@@H]1CCCN1C(=O)[C@@H]1CCCN1C(=O)[C@H](CCCCN)NC(=O)[C@H](CC(=O)O)NC(=O)[C@@H](N)C(C)C)C(=O)N[C@@H](Cc1ccc(O)cc1)C(=O)N[C@@H](CC(N)=O)C(=O)N[C@@H](CCCNC(=N)N)C(N)=O`, the MIC was 1 µM (alamarBlue; SQ110 LptD defective; overnight, 37 °C).
For `Cc1ccc(C=Nc2nc[nH]n2)c(O)c1`, the MIC was 64 µg/mL (microbial growth, broth dilution; ATCC25922).
